Measured values collected from several papers.
Numbered parts are unrelated; each lists some results of a single study. Positions count from the first letter of the parent shown.

Study 1 — target: FOS, bZIP domain (human); technique: DHFR protein complementation; sample: yeast; baseline: wild-type JUN-FOS pair; reading: higher = stronger binding
Setting: single substitutions, most at no-binding floor
Parent: JUN, bZIP domain (human); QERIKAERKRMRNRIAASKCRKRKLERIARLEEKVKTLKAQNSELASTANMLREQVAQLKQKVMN; partner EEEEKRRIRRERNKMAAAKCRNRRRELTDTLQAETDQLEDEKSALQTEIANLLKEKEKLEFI
`A49H` gave a binding fitness of -0.964 natural log.
`T37W` has a binding fitness of -0.17 natural log.
`T48C` gave a binding fitness of -0.206 natural log.
The binding fitness of `L45S` is reported as -1.13 natural log.
The binding fitness of `L38N` is reported as -1.38 natural log.
`A57K` has a binding fitness of -0.0396 natural log.
`Q55L` has a binding fitness of -0.146 natural log.
With `R30L` the binding fitness was 0.118 natural log.
With `S47K` the binding fitness was 0.132 natural log.
With `K39T` the binding fitness was -0.281 natural log.
`E32H` gave a binding fitness of -0.226 natural log.
`L38Y` has a binding fitness of -1.28 natural log.

Study 2 — technique: RNA Bind-n-Seq; molecule type: RNA; sample: in vitro; tested at: not given; baseline: input RNA pool; reading: higher = stronger binding
Target: RING finger protein unkempt homolog, zinc fingers 1-6, GST-SBP tag (UNK, Homo sapiens, UniProt Q9C0B0, residues 30-357)
Setting: RNA with constant flanks, human and mouse sites, ends assumed
Residues (chain): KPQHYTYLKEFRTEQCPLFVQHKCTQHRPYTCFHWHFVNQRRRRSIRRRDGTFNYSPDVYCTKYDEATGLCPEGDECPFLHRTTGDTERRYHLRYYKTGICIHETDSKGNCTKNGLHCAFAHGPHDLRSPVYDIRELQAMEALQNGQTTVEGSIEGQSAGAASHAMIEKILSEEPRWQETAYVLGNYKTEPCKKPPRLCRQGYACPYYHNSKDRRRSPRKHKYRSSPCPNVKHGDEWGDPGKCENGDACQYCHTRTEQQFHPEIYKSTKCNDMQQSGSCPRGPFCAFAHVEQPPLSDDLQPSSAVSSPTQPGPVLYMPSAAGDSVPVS
The bound/input enrichment of `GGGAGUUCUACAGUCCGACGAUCGCAGUCUUGGUUGGUUAGCUAUUUGCGCGCAAAUGUUGUGAUCCUGCCAUUAUAGAUUUCUUGUUUCUGUUUUUAGUAAUGUAGUGAGUAGCUCCAGGUGCCACAUCUACUCACAGAUUUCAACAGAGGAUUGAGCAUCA` is reported as 1.57 ratio.
The bound/input enrichment of `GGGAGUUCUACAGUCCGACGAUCUUUUUAGAGUGUGGGAAAACCAAUCUGAGAAGAACAACUUACCUUGUCCUUGAUGAAGCUGAUAGGAUGCUUGAUAUGGGAUUUGAACCCCAGAUAAGGAAAAUUGUGGAUCAAAUAAGACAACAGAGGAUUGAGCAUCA` is reported as 0.245 ratio.
For `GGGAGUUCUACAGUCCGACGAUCGAUUUUGUGGACACCAGAUGUGUGCGGUGUUUUGUUUUCUUUCUUUCGUUUUAAUUUUUUUUUUUUUAAGACAACAACUAAAAAGAAAAAAAAAAUCCCAAGGAUUCUGUGCACUGGAACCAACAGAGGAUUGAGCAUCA`, the bound/input enrichment was 0.222 ratio.
`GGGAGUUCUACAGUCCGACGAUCGGAAUUUGUAAGAAGAACCAUGAUCAGCAUCUUCUUUUACUGUGUGACACCUGUAAACUGCAUUAUCAUCUCGGCUGCCUUGAUCCUCCUCUUACAAGGAUGCCGAGAAAGACGAAAAACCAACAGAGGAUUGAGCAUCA` has a bound/input enrichment of 0.228 ratio.
The bound/input enrichment of `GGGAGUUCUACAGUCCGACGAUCCAGCCUAUGGCCCAGGCCGCCUUGGGUAUUUCUGCUCAAGGUAACCACAUCCCUCUUUAAAAAUUCCGCCGAAAAAGAGAAGACGCUUUACCCGACUCUUUGGGCCGUUAUCUCACGGCGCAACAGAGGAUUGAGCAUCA` is reported as 0.18 ratio.
`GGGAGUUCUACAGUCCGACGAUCUUUGCCUCCGUCCAGAAACAGGCUAGUGAGAAGAGGGCUCUCCGCAAAAAGAGGAAGGCCCUGGAGUUUGUAACUAAUCCCGAUAUUGCUGCCAAGAAGAAGUUGAAGAAACAUAAAAAUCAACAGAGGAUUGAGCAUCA` gave a bound/input enrichment of 0.185 ratio.
For `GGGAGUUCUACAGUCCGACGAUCGGCUGGCCCGUGUCACUGCCUCUGUCACCCAGCUAUCCUCGCACUCAAAGCCAUCCAACCUCAGCAGGCCUUCUCGGGCCCUGCCACCUGAAUAGGUCUGACCCCAGUCCCCACUCCCUUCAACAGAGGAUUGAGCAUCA`, the bound/input enrichment was 0.271 ratio.
With `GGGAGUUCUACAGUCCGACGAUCUUUCUCUAUGGAUAUCUUAAUCAAGAUAACUGUACAUGGAGCAAAGAAGUUUGUCAUCCUGAUAUUGGUGGCAAGAUCAUAAUGUGUCCUCAGUGUGAUAGGCUUUGUCCAUUCUGGAAACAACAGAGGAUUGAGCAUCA` the bound/input enrichment was 0.0852 ratio.
The bound/input enrichment of `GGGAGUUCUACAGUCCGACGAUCCGCUGCUAUGUGGACUUCACAGGGGCCCAGAGCCAUUGUCUGCAUGUGUCCGCCCAGAAGAUGCUGGACGGUGCCUCCUUCACCCUGUAUGAGUUCUGGCAGGAUGAGGCCUCCUGGAGACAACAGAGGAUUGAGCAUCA` is reported as 0.0813 ratio.
The bound/input enrichment of `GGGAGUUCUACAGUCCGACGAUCUUGGCUCACCCUGAUGCUCCAAUGUCCCAGGUUUAUGGAGCACCACACCUACUGAGAUUAUUUGUAAGAAUUGGAGCAAUGUUGGCCUAUACGCCCCUUGAUGAGAAAAGCCUUGCAUUACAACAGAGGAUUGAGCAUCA` is reported as 0.149 ratio.
`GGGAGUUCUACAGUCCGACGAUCAGAAGAAUAAAAAGAAGAGGAAAAAGGUUUUAUAUAAUGCCAAUAAAAAUGAUGAUUAUGACAAUGAAGAGAUCUUAACGUAUGAGGAAAUGUCACUUUAUCACCAGCCAGCAAAUAGGACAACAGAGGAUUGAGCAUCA` has a bound/input enrichment of 0.959 ratio.

Study 3 — technique: two-hybrid; baseline: out of 4 tests; reading: higher = firmer interaction
Partner: ARF19 948-1086 (Arabidopsis thaliana, UniProt Q8RYC8)
B1: ARF5 788-902 (Arabidopsis thaliana, UniProt P93024); chain ATPRVRTYTKVQKTGSVGRSIDVTSFKDYEELKSAIECMFGLEGLLTHPQSSGWKLVYVDYESDVLLVGDDPWEEFVGCVRCIRILSPTEVQQMSEEGMKLLNSAGINDLKTSVS
B2: ARF7 1030-1164 (Arabidopsis thaliana, UniProt P93022); chain PAQTQRMRTYTKVQKRGSVGRSIDVNRYRGYDELRHDLARMFGIEGQLEDPQTSDWKLVYVDHENDILLVGDDPWEEFVNCVQSIKILSSAEVQQMSLDGNFAGVPVTNQACSGGDSGNAWRGHYDDNSATSFNR
B3: ARF18 482-602 (Arabidopsis thaliana, UniProt Q9C5W9); chain QKKQQTSRSRTKVQMQGIAVGRAVDLTLLKSYDELIDELEEMFEIQGQLLARDKWIVVFTDDEGDMMLAGDDPWNEFCKMAKKIFIYSSDEVKKMTTKLKISSSLENEEYGNESFENRSRG
B4: IAA33 (Arabidopsis thaliana, UniProt Q9FKM7); chain MNSFEPQSQDSLQRRFHQDNSTTQQPRDTTTPFIPKPASKNHNNSNSSSGAAGRSFQGFGLNVEDDLVSSVVPPVTVVLEGRSICQRISLDKHGSYQSLASALRQMFVDGADSTDDLDLSNAIPGHLIAYEDMENDLLLAGDLTWKDFVRVAKRIRILPVKGNTRQVKRNE
B5: IAA32 (Arabidopsis thaliana, UniProt Q8RYC6); chain MDPNTPADFFKGSSKFHTYYSQTKKGGGVIDLGLSLRTIQHETYLPPARMIGLDGYGELIDWSQPSYNSITQLKSEDTGHQRLAQGYYNNEGESRGKYAYVKVNLDGLVVGRKVCLVDQGAYATLALQLNDMFGMQTVSGLRLFQTESEFSLVYRDREGIWRNVGDVPWKEFVESVDRMRIARRNDALLPF
B6: ARF2 727-859 (Arabidopsis thaliana, UniProt Q94JM3); chain TKTNSSRSCTKVHKQGIALGRSVDLSKFQNYEELVAELDRLFEFNGELMAPKKDWLIVYTDEENDMMLVGDDPWQEFCCMVRKIFIYTKEEVRKMNPGTLSCRSEEEAVVGEGSDAKDAKSASNPSLSSAGNS
Target sequence (chain): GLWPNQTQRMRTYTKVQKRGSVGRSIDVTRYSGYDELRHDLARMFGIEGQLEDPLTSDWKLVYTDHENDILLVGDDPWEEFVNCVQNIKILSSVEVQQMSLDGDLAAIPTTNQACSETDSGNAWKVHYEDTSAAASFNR
`B1 (ARF5 788-902)` has a positive tests of 0.
`B2 (ARF7 1030-1164)` gave a positive tests of 1.
The positive tests of `B3 (ARF18 482-602)` is reported as 0.
For `B4 (IAA33)`, the positive tests was 4.
With `B5 (IAA32)` the positive tests was 4.
`B6 (ARF2 727-859)` has a positive tests of 0.

Study 4 — technique: DHFR PCA, deep sequencing; sample: yeast; together with: (+)-ABA 4.8 µM; baseline: wild-type fitted maximum; reading: higher = stronger binding
Target: ABI1, truncated, D143A, DHFR fusion (Arabidopsis thaliana)
Setting: methotrexate growth selection, single substitutions
Parent: PYL1, truncated, DHFR fusion (Arabidopsis thaliana); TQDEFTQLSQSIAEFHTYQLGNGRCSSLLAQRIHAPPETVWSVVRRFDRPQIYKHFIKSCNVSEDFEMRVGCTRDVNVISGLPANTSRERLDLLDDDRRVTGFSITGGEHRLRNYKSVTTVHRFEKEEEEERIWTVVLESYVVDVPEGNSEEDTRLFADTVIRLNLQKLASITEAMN; partner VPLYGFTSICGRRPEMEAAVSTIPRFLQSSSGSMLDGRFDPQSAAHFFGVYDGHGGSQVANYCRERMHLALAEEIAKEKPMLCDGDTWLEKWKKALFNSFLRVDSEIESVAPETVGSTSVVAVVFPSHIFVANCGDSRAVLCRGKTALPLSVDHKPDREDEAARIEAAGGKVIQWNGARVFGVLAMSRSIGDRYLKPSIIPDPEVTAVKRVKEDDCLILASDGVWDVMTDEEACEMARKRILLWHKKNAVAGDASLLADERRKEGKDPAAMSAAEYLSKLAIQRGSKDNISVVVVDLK
Under “relative binding score”, `L138Y` is recorded as 4.91%.
`L29M`: “relative binding score” 44.2%.
`V78N`: “relative binding score” 17%.
For `C60D`, “relative binding score” read -4.17%.
For `T17D`, “relative binding score” read 16%.
Under “relative binding score”, `E38H` is recorded as 40.5%.
`T135M`: “relative binding score” -0.202%.
Under “relative binding score”, `L93E` is recorded as 26.8%.
Under “relative binding score”, `Y53K` is recorded as -27.3%.
`T154P`: “relative binding score” -1.8%.
Under “relative binding score”, `E89H` is recorded as -12%.
For `M176T`, “relative binding score” read 56.2%.
For `R155Y`, “relative binding score” read -8.07%.
`I79F`: “relative binding score” 64.5%.
`L166E` — result for “relative binding score”: -15.2%.

Study 5 — target: CCNF, cyclin fold, Cln2 fusion (human); technique: yeast growth competition, sequencing; sample: yeast; setting: strong parent motif; baseline: not given; reading: higher = stronger binding
Parent: E2F1 docking peptide (human); PPVKRRLDFETDH
`R6W`: “normalised enrichment score” 6.83.
Under “normalised enrichment score”, `E10H` is recorded as 8.04.
For `K4M`, “normalised enrichment score” read 6.93.
For `E10R`, “normalised enrichment score” read 8.25.
Under “normalised enrichment score”, `V3R` is recorded as 3.73.
Under “normalised enrichment score”, `P2V` is recorded as 7.88.
`T11M`: “normalised enrichment score” 7.35.
`D8E` — result for “normalised enrichment score”: 7.25.
`F9G`: “normalised enrichment score” 0.133.
Under “normalised enrichment score”, `P2S` is recorded as 7.8.
`P2E` — result for “normalised enrichment score”: 7.41.
`F9H` — result for “normalised enrichment score”: 0.97.
Under “normalised enrichment score”, `D12L` is recorded as 7.77.
For `K4L`, “normalised enrichment score” read 5.92.
`T11W` — result for “normalised enrichment score”: 7.95.
For `D8W`, “normalised enrichment score” read 9.21.
For `D12M`, “normalised enrichment score” read 7.89.
`D8G` — result for “normalised enrichment score”: 7.78.
For `R6L`, “normalised enrichment score” read 6.06.
Under “normalised enrichment score”, `T11S` is recorded as 7.47.
Under “normalised enrichment score”, `D8I` is recorded as 6.09.
Under “normalised enrichment score”, `D12C` is recorded as 7.76.
`P2M`: “normalised enrichment score” 8.
For `E10M`, “normalised enrichment score” read 8.07.
Under “normalised enrichment score”, `E10G` is recorded as 7.86.

Single results of other studies
For `PhoQ, residues 284 288 289 292 302 303 AGCYAI`, the fold induction was 33 (PhoP, residues 12 14 15 18 19 LHATL (Escherichia coli, UniProt P23836); Sort-seq, refers to: YFP reporter; E. coli; PhoQ-PhoP variant library, together with: 10 µM Mg2+; baseline: high Mg2+ state, higher = stronger signaling).

Repeated from above (study 1):
The binding fitness of `L45S` is reported as -1.13 natural log.
`A57K` has a binding fitness of -0.0396 natural log.
`E32H` gave a binding fitness of -0.226 natural log.
`T37W` has a binding fitness of -0.17 natural log.
